# Measured values from different studies.
# Compare with care: the assays were run in different laboratories. Several values in a cell are separate wells, animals, samples, runs or records. ± gives the spread as reported.
# Proteasome subunit beta type-9: Proteasome subunit beta type-9 (Homo sapiens, UniProt P28065)
# Chain of UniProt P28065 (whole entry, looked up): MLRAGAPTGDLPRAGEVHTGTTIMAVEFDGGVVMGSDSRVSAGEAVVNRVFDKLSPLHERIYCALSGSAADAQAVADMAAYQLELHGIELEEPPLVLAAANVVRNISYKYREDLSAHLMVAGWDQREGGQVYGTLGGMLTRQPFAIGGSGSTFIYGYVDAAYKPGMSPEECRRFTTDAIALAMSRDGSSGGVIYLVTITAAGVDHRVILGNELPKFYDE
# Probable G-protein coupled receptor 34: Probable G-protein coupled receptor 34 (Homo sapiens, UniProt Q9UPC5)
# Chain of UniProt Q9UPC5 (whole entry, looked up): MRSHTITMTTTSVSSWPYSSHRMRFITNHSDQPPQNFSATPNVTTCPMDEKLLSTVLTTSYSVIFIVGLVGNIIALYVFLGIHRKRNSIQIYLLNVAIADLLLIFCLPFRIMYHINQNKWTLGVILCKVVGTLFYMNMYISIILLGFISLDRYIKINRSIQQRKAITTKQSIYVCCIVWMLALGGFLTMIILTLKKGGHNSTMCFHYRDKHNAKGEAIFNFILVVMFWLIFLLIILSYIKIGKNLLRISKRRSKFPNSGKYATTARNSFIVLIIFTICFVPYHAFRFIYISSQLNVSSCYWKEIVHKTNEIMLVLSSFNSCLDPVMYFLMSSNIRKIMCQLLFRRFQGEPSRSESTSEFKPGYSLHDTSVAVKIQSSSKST
# SRC: Proto-oncogene tyrosine-protein kinase Src (SRC, Homo sapiens, UniProt P12931)
# P2RX4: P2X purinoceptor 4 (P2RX4, Homo sapiens, UniProt Q99571)
# Chain of UniProt Q99571 (whole entry, looked up): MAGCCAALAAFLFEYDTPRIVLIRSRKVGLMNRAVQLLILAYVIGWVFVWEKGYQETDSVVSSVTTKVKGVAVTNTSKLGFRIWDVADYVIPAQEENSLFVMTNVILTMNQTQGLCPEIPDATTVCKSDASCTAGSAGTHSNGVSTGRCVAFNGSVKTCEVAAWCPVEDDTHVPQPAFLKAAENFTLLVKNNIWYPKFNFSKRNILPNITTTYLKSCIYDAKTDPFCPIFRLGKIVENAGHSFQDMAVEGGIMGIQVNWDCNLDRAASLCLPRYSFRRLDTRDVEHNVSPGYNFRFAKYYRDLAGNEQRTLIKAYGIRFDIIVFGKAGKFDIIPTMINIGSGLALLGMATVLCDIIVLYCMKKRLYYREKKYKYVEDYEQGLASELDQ
# SOD1 fully metallated: Superoxide dismutase [Cu-Zn], fully metallated (SOD1, Homo sapiens, UniProt P00441)
# Chain of UniProt P00441 (whole entry, looked up): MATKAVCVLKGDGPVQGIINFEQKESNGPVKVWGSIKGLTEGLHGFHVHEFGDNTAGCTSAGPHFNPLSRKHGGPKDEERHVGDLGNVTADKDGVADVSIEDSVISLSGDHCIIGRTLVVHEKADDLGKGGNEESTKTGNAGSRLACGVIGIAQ
# pyrD: Dihydroorotate dehydrogenase (quinone) (pyrD, Acinetobacter baumannii, UniProt B7GZW7)
# Chain of UniProt B7GZW7 (whole entry, looked up): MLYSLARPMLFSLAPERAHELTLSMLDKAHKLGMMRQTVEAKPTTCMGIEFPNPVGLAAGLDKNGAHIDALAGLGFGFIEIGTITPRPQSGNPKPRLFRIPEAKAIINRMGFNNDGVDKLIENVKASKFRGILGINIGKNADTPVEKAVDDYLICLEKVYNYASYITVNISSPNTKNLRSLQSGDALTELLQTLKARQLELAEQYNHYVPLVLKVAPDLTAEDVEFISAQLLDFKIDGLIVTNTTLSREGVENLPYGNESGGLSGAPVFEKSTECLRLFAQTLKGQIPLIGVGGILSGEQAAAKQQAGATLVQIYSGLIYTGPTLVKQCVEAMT
# PADI4: Protein-arginine deiminase type-4 (PADI4, Homo sapiens, UniProt Q9UM07)
# Chain of UniProt Q8IWT6 (whole entry, unmodified, looked up): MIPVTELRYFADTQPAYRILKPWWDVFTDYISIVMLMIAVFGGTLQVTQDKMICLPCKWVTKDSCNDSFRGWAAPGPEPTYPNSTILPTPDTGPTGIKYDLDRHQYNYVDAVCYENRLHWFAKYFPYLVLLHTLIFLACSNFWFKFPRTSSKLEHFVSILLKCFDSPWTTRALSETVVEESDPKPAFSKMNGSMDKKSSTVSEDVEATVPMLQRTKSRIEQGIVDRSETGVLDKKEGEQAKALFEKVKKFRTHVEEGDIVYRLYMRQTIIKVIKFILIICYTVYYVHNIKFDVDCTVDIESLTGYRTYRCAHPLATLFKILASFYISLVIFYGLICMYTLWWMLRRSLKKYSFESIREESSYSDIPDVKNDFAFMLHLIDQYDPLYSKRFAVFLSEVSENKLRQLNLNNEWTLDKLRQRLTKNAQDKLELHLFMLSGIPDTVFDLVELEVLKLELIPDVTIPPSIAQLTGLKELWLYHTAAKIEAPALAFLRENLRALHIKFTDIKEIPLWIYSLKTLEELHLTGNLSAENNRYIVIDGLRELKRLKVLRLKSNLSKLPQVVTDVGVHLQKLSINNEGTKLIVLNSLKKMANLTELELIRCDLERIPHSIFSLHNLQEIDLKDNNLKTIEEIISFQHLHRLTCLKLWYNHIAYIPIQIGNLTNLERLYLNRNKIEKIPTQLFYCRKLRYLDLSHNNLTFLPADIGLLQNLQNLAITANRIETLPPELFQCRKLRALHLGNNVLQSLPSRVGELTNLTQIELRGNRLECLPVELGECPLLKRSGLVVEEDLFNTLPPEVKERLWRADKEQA
# Chain of UniProt Q8C6L5 (whole entry, looked up): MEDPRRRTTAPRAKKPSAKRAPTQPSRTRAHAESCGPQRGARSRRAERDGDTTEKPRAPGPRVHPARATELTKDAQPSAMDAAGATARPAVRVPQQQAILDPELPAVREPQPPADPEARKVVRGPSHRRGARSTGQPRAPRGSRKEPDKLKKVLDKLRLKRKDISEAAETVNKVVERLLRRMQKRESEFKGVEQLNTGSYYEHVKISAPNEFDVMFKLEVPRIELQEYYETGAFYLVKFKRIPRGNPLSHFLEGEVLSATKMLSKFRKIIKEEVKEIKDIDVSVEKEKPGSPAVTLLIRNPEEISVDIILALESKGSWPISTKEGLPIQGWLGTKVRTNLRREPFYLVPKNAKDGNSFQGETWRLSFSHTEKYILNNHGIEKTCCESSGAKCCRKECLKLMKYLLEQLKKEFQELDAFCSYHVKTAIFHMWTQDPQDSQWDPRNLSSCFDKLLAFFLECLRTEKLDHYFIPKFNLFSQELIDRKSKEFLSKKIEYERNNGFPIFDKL
# Chain of UniProt Q9UM07 (whole entry, looked up): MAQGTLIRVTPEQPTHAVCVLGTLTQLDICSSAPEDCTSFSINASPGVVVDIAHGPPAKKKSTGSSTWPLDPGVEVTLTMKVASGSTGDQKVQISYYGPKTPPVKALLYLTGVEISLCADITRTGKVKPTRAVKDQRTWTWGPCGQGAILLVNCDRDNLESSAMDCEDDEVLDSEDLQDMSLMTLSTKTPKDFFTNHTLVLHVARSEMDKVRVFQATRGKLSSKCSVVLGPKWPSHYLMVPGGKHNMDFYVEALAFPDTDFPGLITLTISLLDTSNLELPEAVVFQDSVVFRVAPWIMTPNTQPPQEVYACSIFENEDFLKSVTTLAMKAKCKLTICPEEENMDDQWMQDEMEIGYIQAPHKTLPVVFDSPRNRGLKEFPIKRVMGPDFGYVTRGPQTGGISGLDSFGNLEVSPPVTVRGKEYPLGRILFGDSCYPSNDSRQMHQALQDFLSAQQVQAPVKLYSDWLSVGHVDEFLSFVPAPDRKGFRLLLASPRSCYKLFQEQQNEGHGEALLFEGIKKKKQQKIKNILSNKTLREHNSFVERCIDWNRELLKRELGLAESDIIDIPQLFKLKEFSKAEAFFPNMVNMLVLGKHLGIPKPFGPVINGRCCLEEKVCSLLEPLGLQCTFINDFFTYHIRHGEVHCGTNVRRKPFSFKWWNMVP
# Chain of UniProt P19224 (whole entry, looked up): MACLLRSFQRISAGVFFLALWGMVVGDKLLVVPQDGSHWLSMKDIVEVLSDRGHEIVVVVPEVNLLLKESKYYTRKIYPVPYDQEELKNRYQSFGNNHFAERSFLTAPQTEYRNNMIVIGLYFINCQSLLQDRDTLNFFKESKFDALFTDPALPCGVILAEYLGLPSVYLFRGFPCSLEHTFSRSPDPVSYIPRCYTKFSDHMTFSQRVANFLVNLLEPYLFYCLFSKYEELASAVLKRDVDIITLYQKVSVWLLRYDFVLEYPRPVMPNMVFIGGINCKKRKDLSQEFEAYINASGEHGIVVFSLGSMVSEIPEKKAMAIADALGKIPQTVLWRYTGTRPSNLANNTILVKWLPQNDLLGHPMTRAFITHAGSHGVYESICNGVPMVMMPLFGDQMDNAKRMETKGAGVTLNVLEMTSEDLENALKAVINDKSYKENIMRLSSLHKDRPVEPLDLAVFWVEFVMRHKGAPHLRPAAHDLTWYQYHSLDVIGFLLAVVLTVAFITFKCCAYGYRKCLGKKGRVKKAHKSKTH
# Chain of UniProt P14902 (whole entry, looked up): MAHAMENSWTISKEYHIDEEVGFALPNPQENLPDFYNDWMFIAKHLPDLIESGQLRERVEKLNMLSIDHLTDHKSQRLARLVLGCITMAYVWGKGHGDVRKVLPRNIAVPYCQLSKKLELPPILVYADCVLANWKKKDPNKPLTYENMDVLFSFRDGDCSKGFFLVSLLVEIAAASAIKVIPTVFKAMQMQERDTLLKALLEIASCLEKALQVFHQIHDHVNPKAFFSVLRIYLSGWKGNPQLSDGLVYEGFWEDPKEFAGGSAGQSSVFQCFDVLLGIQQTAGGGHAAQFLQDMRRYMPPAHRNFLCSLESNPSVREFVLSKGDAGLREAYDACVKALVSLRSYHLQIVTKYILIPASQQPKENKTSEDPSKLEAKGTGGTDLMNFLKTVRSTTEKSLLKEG
SMILES,target or system,test,test system,setting,how to read,quantity,result
Cc1ncc(C(=O)N[C@@H](CC(C)C)C(=O)N[C@@H](CC2CCC3CCCCC3C2)C(=O)N[C@H](/C=C/S(C)(=O)=O)Cc2ccc(CN)cc2)s1 (some centres unmarked),Proteasome subunit beta type-9,competitive ABPP,Raji cell lysate,,,IC50,> 10 µM
Cc1c(-c2ccccc2)oc2c(C(=O)O)cccc2c1=O,"LRRC8A (Homo sapiens, UniProt Q8IWT6)",hypotonicity-induced current,HEK293,,,IC50,18.5 µM
CCc1ccc(Cn2nnc3c4ccc(F)cc4c(=O)[nH]c32)cc1,"Protein mono-ADP-ribosyltransferase PARP11 (PARP11, Homo sapiens, UniProt Q9NR21)",,,,,IC50,> 10 µM
Cc1cc(CS(=O)(=O)c2ccccc2)cc(OCc2ccc(CN3CCC[C@@H]3CO)cc2)c1,Probable G-protein coupled receptor 34,"antagonist, Tango",,with: LysoPS 5 µM,,IC50,> 10 µM
Nc1nc(=O)c2nc(CNc3ccc(C(=O)N[C@@H](CCC(=O)O)C(=O)O)cc3)cnc2[nH]1,,"binding, MIDAS equilibrium dialysis LC-MS",A2AR-BRIL thermostabilized,concentration not given,reference: no-protein control,log2 fold change,-0.254
Cc1nc(Nc2ncc(C(=O)Nc3c(C)cccc3Cl)s2)cc(N2CC[C@H](O)C2)n1,SRC,"enzyme activity, inhibitor",,,,IC50,7e-05 µM
Nc1ccc(C(=O)Nc2ccc(-c3nc4ccc(NC(=O)c5ccc(N)cc5)cc4s3)cc2)cc1,"Moesin, with CD44 (Homo sapiens, UniProt P26038)","MSN-CD44 binding, inhibitor, TR-FRET",,,,IC50,8.1 µM
CC(C)C[C@H](NC(=O)[C@@H](O)[C@H](N)Cc1ccccc1)C(=O)O,rat aminopeptidase III,"enzyme activity, inhibitor",,,,IC50,0.2 µM
Cc1ccc(S(=O)(=O)/C=C/C#N)cc1,"Ubiquitin carboxyl-terminal hydrolase 1 (USP1, Homo sapiens, UniProt O94782)","enzyme activity, inhibitor, MALDI-TOF DUB",,"35 min preincubation, 30 °C, with: UAF1 complex",,IC50,1.62 µM
Cc1oc(C)c(-c2ccc(N(CC(C)C)CC(C)C)c(NC(=O)Nc3cccc(B(O)O)c3)c2)c1C(=O)O,"Indoleamine 2,3-dioxygenase 1 (IDO1, Homo sapiens, UniProt P14902)","enzyme activity, inhibitor, recombinant enzyme, item: kynurenine",,"20 min, 2% DMSO, with: L-tryptophan",,IC50,56 ± 5 µM
COc1ccccc1S(=O)(=O)N1CCNCC1COc1ccc2ccccc2c1 (centres unmarked),P2RX4,"calcium flux, inhibitor, Ca2+ flux",human cells,,,IC50,> 10 µM
Cn1cc(-c2ccc3c(c2)CCN3C(=O)Cc2cccc(C(F)(F)F)c2)c2c(N)ncnc21,Probable G-protein coupled receptor 34,"antagonist, Tango",,with: LysoPS 5 µM,,IC50,> 10 µM
CC(C)C[C@H](NC(=O)[C@H](Cc1ccccc1)N=[N+]=[N-])C(=O)N[C@@H](CC(F)(F)F)C(=O)N[C@H](/C=C/S(C)(=O)=O)Cc1ccc(CN)cc1,Proteasome subunit beta type-9,competitive ABPP,Raji cell lysate,,,IC50,> 10 µM
CCCN1CCN(c2ccc(-c3cncc(Cl)c3N3CCC4(CCNC4=O)CC3)cc2)CC1,"Cyclin-dependent kinase 8, with cyclin C (CDK8, Homo sapiens, UniProt P49336)",,,,,IC50,0.007 µM
COc1cc(C(=O)NS(=O)(=O)c2ccccc2C)ccc1Cc1cn(C)c2ccc(NC(=O)OC3CCCC3)cc12,"LRRC8A/LRRC8C (Homo sapiens, UniProt Q8IWT6+Q8TDW0, M48D/T48D)","ion current, inhibitor, whole-cell patch clamp",HCT116 LRRC8-/- transfected,at +100 mV,,IC50,45.5 µM
COCCCOc1ccnc(C[S+]([O-])c2nc3ccccc3[nH]2)c1C (centres unmarked),"Carboxy-terminal domain RNA polymerase II polypeptide A small phosphatase 1 (CTDSP1, Homo sapiens, UniProt Q9GZU7)","enzyme activity, inhibitor",,with: pNPP,,IC50,3.6 µM
NC(=O)c1nnn(Cc2cc(Cl)c(C(=O)c3ccc(Cl)cc3)c(Cl)c2)c1N,"Mu-type opioid receptor (OPRM1, Homo sapiens, UniProt P35372)","antagonist, cell-based",,,,IC50,0.609 µM
c1cc(N2CCNCC2COc2ccc3c(c2)OCO3)ccn1 (centres unmarked),P2RX4,"Ca2+ flux, antagonist",human cells expressing P2RX4,racemate tested,,IC50,6.17 µM
Cc1nn(-c2nc3ccc(Cl)c(Cl)c3[nH]2)c(O)c1C1OC(=O)c2ccccc21 (centres unmarked),"Cyclic GMP-AMP synthase (Cgas, Mus musculus, UniProt Q8C6L5)","enzyme activity, inhibitor, pyrophosphatase-coupled",,mouse cGAS,,IC50,0.362 µM and 0.351 µM
COc1ccc(C[C@H](NC(=O)[C@H](C)NC(=O)CN2CCOCC2)C(=O)N[C@@H](CC2CCC3CCCCC3C2)C(=O)[C@@]2(C)CO2)cc1 (some centres unmarked),Proteasome subunit beta type-9,competitive ABPP,Raji cell lysate,,,IC50,> 10 µM
COc1ccc(/C=C/C(=O)Nc2ccccc2C(=O)O)cc1OC,SOD1 fully metallated,"enzyme activity, inhibitor, XTT",,,,IC50,> 75 µM
O=S(=O)(c1ccccc1)N1CCNCC1COc1ccc2ccccc2c1 (centres unmarked),P2RX4,"calcium flux, inhibitor, Ca2+ flux",human cells,,,IC50,6.46 ± 0.13 µM
Cc1cnc(-c2ccc(-c3ccc(NC(=O)Nc4c(F)cc(F)cc4F)cc3F)c3c2C(=O)NC3)[nH]1,"Tyrosine-protein kinase Fgr (FGR, Homo sapiens, UniProt P09769)","enzyme activity, inhibitor, mobility shift",,with: ATP 1 mM,,IC50,0.0821 µM
CC[C@@H]1[C@H](F)C(=O)N[C@@H]1COc1nccc2cc(C(N)=O)c(OC)cc12,"Casein kinase I isoform alpha (CSNK1A1, Homo sapiens, UniProt P48729)","ATP-site binding, ActivX KiNativ profiling",THP-1 cell lysate,Lys2 CK1a probe site,,IC50,> 5 µM
CCC(=O)Nc1cccc(Oc2nc(Nc3ccc(N4CCN(C)CC4)cc3OC)ncc2Cl)c1,Probable G-protein coupled receptor 34,"antagonist, Tango",,with: LysoPS 5 µM,,IC50,> 10 µM
Cn1c(CSc2nc3ccccc3s2)n[nH]c1=S,"ATP-binding cassette sub-family C member 4 (ABCC4, Homo sapiens, UniProt O15439)","ATP-dependent transport, inhibitor, inside-out membrane vesicles",,,,IC50,3600 µM
O=C1OC2(c3ccccc31)c1cc(Br)c(O)c(Br)c1Oc1c2cc(Br)c(O)c1Br,SOD1 fully metallated,"enzyme activity, inhibitor, XTT",,,,IC50,> 75 µM
CC(=O)O[C@H]1C(=O)[C@@]2(C)[C@H]([C@H](OC(=O)c3ccccc3)[C@]3(O)C[C@H](OC(=O)[C@H](O)[C@@H](NC(=O)c4ccccc4)c4ccccc4)C(C)=C1C3(C)C)[C@]1(OC(C)=O)CO[C@@H]1C[C@@H]2O,"Solute carrier organic anion transporter family member 1B3 (SLCO1B3, Homo sapiens, UniProt Q9NPD5, M233I/S112A)","estradiol glucuronide uptake, inhibitor",SLCO1B3-expressing cells,"2 min, with: 1 µM [3H]estradiol glucuronide",,IC50,47.2 ± 2.61 µM
CC(C)(/C=C(\C#N)C(=O)N1CCC[C@@H](n2nc(-c3ccc(Oc4ccccc4)cc3F)c3c(N)ncnc32)C1)N1CCN(C2COC2)CC1,SRC,,,,,IC50,1.1 µM
Cc1cc(Nc2ccc(SC(F)(F)F)cc2)n2ncnc2n1,pyrD,"enzyme activity, inhibitor, DCIP steady-state rate",,,,IC50,0.52 ± 0.16 µM
CC(C)NC(=O)COc1cccc(-c2nc(Nc3ccc4[nH]ncc4c3)c3ccccc3n2)c1,"UDP-glucuronosyltransferase 1A6 (UGT1A6, Homo sapiens, UniProt P19224)","enzyme activity, inhibitor",recombinant microsomes,with: diclofenac,,IC50,> 10 µM
COc1ccc(N2CCNCC2COc2ccc3c(c2)OCO3)cc1 (centres unmarked),P2RX4,"Ca2+ flux, antagonist",human cells expressing P2RX4,racemate tested,,IC50,7.41 µM
CSc1ccccc1C(=O)NCCn1cc(C(=O)NCc2cccc(C)n2)c(=O)c2cc3c(cc21)OC(F)(F)O3,"Cytochrome P450 2C9 (CYP2C9, Homo sapiens, UniProt P11712)","enzyme activity, inhibitor",human liver microsomes,"20 min, 30 min NADPH preincubation, with: diclofenac 5 µM",,IC50,> 100 µM
NC(=O)c1ccc[n+]([C@@H]2O[C@H](COP(=O)([O-])OP(=O)(O)OC[C@H]3O[C@@H](n4cnc5c(N)ncnc54)[C@H](OP(=O)(O)O)[C@@H]3O)[C@@H](O)[C@H]2O)c1,,"binding, MIDAS equilibrium dialysis LC-MS",A2AR-BRIL thermostabilized,concentration not given,reference: no-protein control,log2 fold change,-0.287
Cc1ncc(C(=O)N[C@@H](CC(C)C)C(=O)N[C@@H](CC2CCCC3CCCCC32)C(=O)N[C@H](/C=C/S(C)(=O)=O)Cc2ccc(CN)cc2)s1 (some centres unmarked),Proteasome subunit beta type-9,competitive ABPP,Raji cell lysate,,,IC50,> 10 µM
Cc1cc(Nc2ccc(C(F)(F)F)cc2)n2ccnc2n1,pyrD,"enzyme activity, inhibitor, DCIP steady-state rate",,,,IC50,0.098 µM
O=S(=O)(c1ccccc1C(F)(F)F)N1CCNCC1COc1ccc2ccccc2c1 (centres unmarked),P2RX4,"calcium flux, inhibitor, Ca2+ flux",human cells,,,IC50,8.31 ± 0.41 µM
Cc1ncc(C(=O)N[C@@H](CC(C)C)C(=O)N[C@@H](CC2CCC(C3CCCCC3)CC2)C(=O)N[C@H](/C=C/S(C)(=O)=O)Cc2ccc(CN)cc2)s1 (some centres unmarked),Proteasome subunit beta type-9,competitive ABPP,Raji cell lysate,,,IC50,> 10 µM
N#Cc1ccc(N2CCNCC2COc2ccc3c(c2)OCO3)cc1 (centres unmarked),P2RX4,"calcium flux, inhibitor, Ca2+ flux",human cells,,,IC50,6.17 ± 2.03 µM
CCn1c(-c2nc3cc(C(=O)N4CCC[C@@H](N)C4)cc(OC)c3n2C)cc2cccnc21,PADI4,"enzyme activity, ammonia release",,"with: BAEE substrate, 0.2 mM Ca2+",,IC50,0.2 µM
CCN(CC)c1cc(C)c2cc(NC(=O)/C=C/c3ccco3)ccc2n1,"TP53-binding protein 1, tandem tudor domain (Homo sapiens, UniProt Q12888)","dimethyl-lysine p53 peptide binding, inhibitor, TR-FRET displacement",,,,IC50,> 33 µM
CNCc1cc(-c2ccccc2F)n(S(=O)(=O)c2cccnc2)c1,"Potassium-transporting ATPase alpha chain 1 (Sus scrofa, UniProt P19156)","enzyme activity, inhibitor",porcine gastric vesicles,pH 6.5,,IC50,0.0225 µM
CC(C)C[C@H](NC(=O)[C@H](CCc1ccccc1)NC(=O)CN1CCOCC1)C(=O)N[C@@H](Cc1ccccc1)C(=O)N[C@@H](CC(C)C)C(=O)[C@@]1(C)CO1,"Proteasome subunit beta type-1/Psmb8, LMP7 subunit (Mus musculus, UniProt O09061+P28063)",proteasome subunit activity,Ba/F3 BCR-ABL1 H396P,1 h pulse,,IC50,0.00566 ± 0.00013 µM
Nc1nc(=O)n([C@H]2C[C@H](O)[C@@H](CO)O2)cc1CSCCCC[C@H](N)C(=O)O,"DNA (cytosine-5)-methyltransferase 1 (DNMT1, Homo sapiens, UniProt P26358)",,,"truncated enzyme, with: 26 bp hemimethylated DNA, SAM 1 µM",,IC50,> 100 µM
CN1CCN(c2ccc(Nc3ncc4cc(C#N)c(=O)n(C5CCCC5)c4n3)cc2)CC1,"Mitogen-activated protein kinase kinase kinase 10 (MAP3K10, Homo sapiens, UniProt Q02779)",,,,,IC50,1.99 µM
FC(F)(F)CN1CC(n2cc(Oc3ccn4nc(Cl)cc4n3)cn2)C1,"Voltage-dependent L-type calcium channel subunit alpha-1C (CACNA1C, Homo sapiens, UniProt Q13936)",ion current,,,,IC50,> 30 µM
CCCc1nc2c(C)cc(-c3nc4ccccc4n3C)cc2n1Cc1ccc(-c2ccccc2C(=O)O)cc1,"Solute carrier family 22 member 11 (SLC22A11, Homo sapiens, UniProt Q9NSA0)","transport, inhibitor",CHO expressing hOAT4,"5 min, with: 6-carboxyfluorescein 25 µM",,IC50,1.12 ± 0.14 µM
O=S(=O)(Cc1ccc(F)cc1)N1CCNCC1COc1ccc2ccccc2c1 (centres unmarked),P2RX4,"calcium flux, inhibitor, Ca2+ flux",human cells,,,IC50,3.31 ± 0.23 µM
CC(C)C[C@H](NC(=O)c1ccc(-c2ccccc2)nc1)C(=O)N[C@@H](CC(C)C)C(=O)N[C@H](/C=C/S(C)(=O)=O)Cc1ccc(CN)cc1,Proteasome subunit beta type-9,competitive ABPP,Raji cell lysate,,,IC50,> 10 µM
CCN(CC)CCCC(C)Nc1ccnc2cc(Cl)ccc12 (centres unmarked),polyamine oxidase (rat),inhibitor,ischemic brain homogenate,with: spermine,,IC50,40 µM
CCN(CC)CCCC(C)Nc1nc(C)cc(Nc2ccc3nc(C)cc(N)c3c2)n1 (centres unmarked),Probable G-protein coupled receptor 34,"antagonist, Tango",,with: LysoPS 5 µM,,IC50,> 10 µM
Cc1ccccc1S(=O)(=O)N1CCNCC1COc1ccc2ccccc2c1 (centres unmarked),P2RX4,"calcium flux, inhibitor, Ca2+ flux",human cells,,,IC50,4.67 ± 0.23 µM
CCn1c(-c2nc3ccc(C(=O)N4CCCC(N)C4)cc3n2C)cc2ccccc21 (centres unmarked),PADI4,"binding, chemoproteomic bead capture dot-blot",NB-4 cell lysate,,,IC50,> 10 µM
